Measured values collected from several papers.
Every numbered part comes from another study and shows a few of its results, in no order. Changes are numbered by the printed parent chain.
Chain of UniProt Q38830 (whole entry, looked up): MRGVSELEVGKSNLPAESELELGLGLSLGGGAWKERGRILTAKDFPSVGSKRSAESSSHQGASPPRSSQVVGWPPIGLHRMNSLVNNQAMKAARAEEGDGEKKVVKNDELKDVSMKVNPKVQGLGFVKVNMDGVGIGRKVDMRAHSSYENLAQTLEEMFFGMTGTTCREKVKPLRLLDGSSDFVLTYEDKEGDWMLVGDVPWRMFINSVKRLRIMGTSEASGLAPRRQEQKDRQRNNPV
Chain of UniProt Q9C8N7 (whole entry, looked up): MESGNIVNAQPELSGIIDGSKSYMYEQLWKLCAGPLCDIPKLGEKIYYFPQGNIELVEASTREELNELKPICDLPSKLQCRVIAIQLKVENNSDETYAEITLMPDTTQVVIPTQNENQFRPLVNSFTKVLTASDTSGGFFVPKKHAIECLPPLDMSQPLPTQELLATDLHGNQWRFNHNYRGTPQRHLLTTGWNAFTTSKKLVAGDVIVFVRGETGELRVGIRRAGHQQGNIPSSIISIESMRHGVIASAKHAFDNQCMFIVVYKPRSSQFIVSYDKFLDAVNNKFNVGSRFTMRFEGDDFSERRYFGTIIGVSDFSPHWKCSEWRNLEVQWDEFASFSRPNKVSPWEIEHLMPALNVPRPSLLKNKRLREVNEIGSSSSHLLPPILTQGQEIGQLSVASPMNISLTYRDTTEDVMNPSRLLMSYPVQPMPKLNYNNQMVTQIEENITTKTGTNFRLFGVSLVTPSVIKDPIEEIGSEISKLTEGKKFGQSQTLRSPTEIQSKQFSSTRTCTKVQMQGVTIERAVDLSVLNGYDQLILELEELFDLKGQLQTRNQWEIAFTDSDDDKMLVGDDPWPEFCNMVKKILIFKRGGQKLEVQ
Chain of UniProt Q9C5W9 (whole entry, looked up): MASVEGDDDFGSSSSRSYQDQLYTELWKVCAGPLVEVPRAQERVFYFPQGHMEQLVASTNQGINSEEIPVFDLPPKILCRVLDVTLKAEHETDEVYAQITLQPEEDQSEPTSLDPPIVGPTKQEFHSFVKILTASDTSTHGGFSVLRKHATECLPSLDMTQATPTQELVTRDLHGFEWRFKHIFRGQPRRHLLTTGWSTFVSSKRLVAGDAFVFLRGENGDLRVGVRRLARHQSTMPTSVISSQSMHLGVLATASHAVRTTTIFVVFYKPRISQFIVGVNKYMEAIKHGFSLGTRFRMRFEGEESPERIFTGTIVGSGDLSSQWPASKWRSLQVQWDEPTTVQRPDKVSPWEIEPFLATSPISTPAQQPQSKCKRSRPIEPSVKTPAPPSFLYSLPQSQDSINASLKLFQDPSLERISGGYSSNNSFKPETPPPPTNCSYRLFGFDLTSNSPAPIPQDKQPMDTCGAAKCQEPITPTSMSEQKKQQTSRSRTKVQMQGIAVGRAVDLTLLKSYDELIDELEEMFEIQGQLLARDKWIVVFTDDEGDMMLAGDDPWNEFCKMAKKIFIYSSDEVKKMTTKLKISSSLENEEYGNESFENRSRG
Chain of UniProt P33078 (whole entry, looked up): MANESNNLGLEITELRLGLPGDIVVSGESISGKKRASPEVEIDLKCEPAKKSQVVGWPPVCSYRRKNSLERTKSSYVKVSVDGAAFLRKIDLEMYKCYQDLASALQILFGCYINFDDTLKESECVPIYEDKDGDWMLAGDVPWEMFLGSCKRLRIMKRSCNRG
Chain of UniProt P93022 (whole entry, looked up): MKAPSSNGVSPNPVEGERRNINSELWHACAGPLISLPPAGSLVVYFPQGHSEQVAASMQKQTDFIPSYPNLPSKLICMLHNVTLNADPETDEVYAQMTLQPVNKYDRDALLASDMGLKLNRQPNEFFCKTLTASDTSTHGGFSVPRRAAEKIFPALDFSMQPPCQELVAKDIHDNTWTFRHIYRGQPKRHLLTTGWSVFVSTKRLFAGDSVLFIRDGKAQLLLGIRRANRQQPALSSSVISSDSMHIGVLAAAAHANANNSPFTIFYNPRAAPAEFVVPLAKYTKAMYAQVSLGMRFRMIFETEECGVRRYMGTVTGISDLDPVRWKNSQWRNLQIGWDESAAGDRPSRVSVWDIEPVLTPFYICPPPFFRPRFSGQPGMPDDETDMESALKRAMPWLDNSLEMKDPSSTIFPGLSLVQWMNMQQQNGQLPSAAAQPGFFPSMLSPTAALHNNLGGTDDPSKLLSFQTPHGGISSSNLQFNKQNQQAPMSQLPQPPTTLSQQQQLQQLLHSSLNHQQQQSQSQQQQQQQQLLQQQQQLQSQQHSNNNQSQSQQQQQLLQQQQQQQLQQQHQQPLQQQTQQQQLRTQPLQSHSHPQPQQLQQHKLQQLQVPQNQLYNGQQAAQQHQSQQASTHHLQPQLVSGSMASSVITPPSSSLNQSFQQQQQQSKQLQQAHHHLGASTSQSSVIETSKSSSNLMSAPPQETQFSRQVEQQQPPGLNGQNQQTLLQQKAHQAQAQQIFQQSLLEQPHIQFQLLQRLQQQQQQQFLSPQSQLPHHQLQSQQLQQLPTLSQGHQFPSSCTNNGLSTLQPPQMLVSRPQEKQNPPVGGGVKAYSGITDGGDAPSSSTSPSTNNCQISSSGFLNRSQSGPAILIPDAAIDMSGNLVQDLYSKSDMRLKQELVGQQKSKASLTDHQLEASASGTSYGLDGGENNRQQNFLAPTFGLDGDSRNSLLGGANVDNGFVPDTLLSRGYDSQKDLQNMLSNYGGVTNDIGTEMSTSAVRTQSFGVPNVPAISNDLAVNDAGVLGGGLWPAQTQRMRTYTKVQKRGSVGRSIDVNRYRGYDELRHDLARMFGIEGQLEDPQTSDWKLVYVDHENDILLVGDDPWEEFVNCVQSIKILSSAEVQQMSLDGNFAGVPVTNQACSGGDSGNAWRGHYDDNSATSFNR

Study 1
Target: CCNE1, cyclin fold, Cln2 fusion (human)
Technique: yeast growth competition, sequencing
Medium: yeast
Setting: weak parent motif
Baseline: not given
Direction: higher = stronger binding
Starting sequence: SAMHD1 docking peptide (human); ASKSRVQLFKDDP
Substitution	normalised enrichment score
D11M	0.446
L8N	-0.0628
D11T	0.349
K10G	0.121
K10F	-0.25
Q7T	-0.102
K3P	0.315
D12W	0.429
S2G	0.00842
S4G	0.149
D11C	0.106
K3F	0.379
K3L	0.0752
K10S	0.283
F9N	0.0923
D12Q	-0.0346
R5D	-0.0389
S4P	-0.0983
D11N	0.257
L8K	-0.124
F9R	0.0715
V6T	0.0222
K3D	0.0383
Q7W	0.563
V6S	-0.352

Study 2
Target: ABI1, truncated, D143A, DHFR fusion (Arabidopsis thaliana, UniProt P49597)
Technique: DHFR PCA, dose-response
Medium: yeast
Setting: Hill fit, mean, not affinity
Together with: (+)-ABA, dose series
Direction: lower = more sensitive
Starting sequence: PYL1, truncated, DHFR fusion (Arabidopsis thaliana, UniProt Q8VZS8); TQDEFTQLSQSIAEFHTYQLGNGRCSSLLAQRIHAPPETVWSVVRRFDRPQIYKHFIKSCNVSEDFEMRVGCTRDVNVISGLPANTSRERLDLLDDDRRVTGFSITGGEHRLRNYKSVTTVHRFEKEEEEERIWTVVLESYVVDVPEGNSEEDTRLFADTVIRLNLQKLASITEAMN
Substitution	ABA EC50 [µM]
A175G	1.23
K126W	4.16
L28Q	50.6
E64W	5.55
R90S	29.2
P37I	6
L20E	1.62
S80R	145
G108M	598
E64H	2.66
S171Y	3.3
E128I	3.87
E147F	3.35
S63H	2.77
E152C	5.73
L8A	34.4
T73A	16
K58F	31.9
S42K	2.55
S87A	21.6
D65W	23
R113V	6.36
I172S	64.7
L138A	432

Study 3
Molecule: B1 (IAA4)
Technique: two-hybrid
Baseline: out of 4 tests
Direction: higher = firmer interaction
B1: IAA4 (Arabidopsis thaliana, UniProt P33077); chain MEKVDVYDELVNLKATELRLGLPGTEETVSCGKSNKRVLPEATEKEIESTGKTETASPPKAQIVGWPPVRSYRKNNVQTKKSESEGQGNYVKVSMDGAPYLRKIDLTMYKQYPELMKSLENMFKFSVGEYFEREGYKGSDFVPTYEDKDGDWMLVGDVPWEMFVSSCKRLRIMKGSEVKGLGCGGL
partner	positive tests
IAA7 (Arabidopsis thaliana, UniProt Q38825)	1
IAA12 (Arabidopsis thaliana, UniProt Q38830)	4
ARF18 482-602 (Arabidopsis thaliana, UniProt Q9C5W9)	0
IAA5 (Arabidopsis thaliana, UniProt P33078)	3
ARF22 498-598 (Arabidopsis thaliana, UniProt Q9C8N7)	0
ARF7 1030-1164 (Arabidopsis thaliana, UniProt P93022)	4

Study 4
Target: Interferon regulatory factor 5, full length, phosphomimetic (IRF5, Homo sapiens, UniProt Q13568-2, residues 1-514, K96S/S451D/S453D/S456D/S462D)
Technique: protein-binding microarray
Form: double-stranded DNA, one strand shown
Medium: in vitro
Concentration: 250 nM
Setting: 60-bp whole probe
Together with: salmon DNA 0.4 mg/ml
Baseline: random background probes
Direction: higher = stronger binding
Constant ends, left off below: GCCTAGCAC … GTCTTGATTCGCTTGACGCTGCTG
Oligonucleotide	log fluorescence [z-score]
GAATGTAACTCCTATCCAAGTGTGCTA	0.35
TTAGGTTACCTACTGCTTTAGTGCTAG	-0.15
TTAGGTTTCGACGATCGGTTAGTGCTA	6.13
TCATATGTCCTGTCTACAACTGTGCTA	0.521
GACGATTTCAGTTCGGAGACGTGCTAG	0.891
GACGAATTGGGGTATCGAGACGTGCTA	0.372
TTAGAGATCAGTATCGATTAGTGCTAG	7.23
GGGTCTTCAGGTTCTCCCCCAGTGCTA	-0.573
TTTGGTCTCCTTATCCTTTAGTGCTAG	-0.00425
GACGCACTGGGGACTGGGGACGTGCTA	-0.583
TTAGATTTCAGTTCCGTTTAGTGCTAG	2.66
TTAGATATCGGGAGTGGATTAGTGCTA	1.2
GAAGGTTTCGGGACTGGGGACGTGCTA	4.13
GACGGACTGCTTATGCTGACGTGCTAG	-0.499
GACGGTTTCGGTCTCGGCACGTGCTAG	9.2
TTAGAACTGAGTCTCGAATAGTGCTAG	0.0523

Excerpt of the above (study 2):
Substitution	ABA EC50 [µM]
L138A	432
K126W	4.16
R90S	29.2
E64W	5.55
A175G	1.23
D65W	23
E64H	2.66
